# Measurements collected from several papers.
# Parts stem from different laboratories: compare values within a part only. Changes are numbered by the printed parent chain.

# Block 1 — target: CCNB1, cyclin fold, Cln2 fusion (human); method: yeast growth competition, sequencing; sample: yeast; setting: strong parent motif; relative to: not given; direction: higher = stronger binding
# Parent: INSM1 docking peptide (human); PKAIRKLHFEDEV; partner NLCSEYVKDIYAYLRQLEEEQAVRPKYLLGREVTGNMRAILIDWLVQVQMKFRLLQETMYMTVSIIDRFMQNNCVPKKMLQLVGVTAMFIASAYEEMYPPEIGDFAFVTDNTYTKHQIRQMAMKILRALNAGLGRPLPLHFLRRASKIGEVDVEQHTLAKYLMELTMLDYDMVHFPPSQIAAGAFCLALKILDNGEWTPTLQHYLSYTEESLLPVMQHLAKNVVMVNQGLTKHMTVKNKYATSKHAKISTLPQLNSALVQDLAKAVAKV
Variant,normalised enrichment score
PKAIRKLHFEDTV [E12T],1.3
PDAIRKLHFEDEV [K2D],3.69
PKFIRKLHFEDEV [A3F],2.31
PKAIRKLHFEDHV [E12H],1.37
PKAIRKEHFEDEV [L7E],-0.0834
PKAIRKLHFETEV [D11T],0.907
PKAIWKLHFEDEV [R5W],0.193
PKAIRKLHFSDEV [E10S],1.21
PMAIRKLHFEDEV [K2M],3.11
PKAIRKLSFEDEV [H8S],2.97
PKAIRKLHFEYEV [D11Y],0.829
PKAIRKLCFEDEV [H8C],3.18
PKAIRKLHFRDEV [E10R],1.03
PKAIRFLHFEDEV [K6F],0.605
PKAIHKLHFEDEV [R5H],0.487
PKAIGKLHFEDEV [R5G],0.278
PKAIRDLHFEDEV [K6D],0.12
PKEIRKLHFEDEV [A3E],1.3
PKGIRKLHFEDEV [A3G],0.55
PKAIRKMHFEDEV [L7M],0.409
PKAISKLHFEDEV [R5S],0.712
PKAIRVLHFEDEV [K6V],0.96
PKRIRKLHFEDEV [A3R],0.327
PKAIRKLHPEDEV [F9P],0.326
PKAIRKLHFEIEV [D11I],1.29

# Block 2 — method: RNA Bind-n-Seq; form: RNA; sample: in vitro; concentration: 1 µM; setting: whole 134-nt RNA, ends assumed; together with: 150 mM KCl; relative to: input library; direction: higher = stronger binding
# Target: Ras GTPase-activating protein-binding protein 1, RRM domain (G3BP1, Homo sapiens, UniProt Q13283)
# UniProt Q13283, sequence (whole entry, looked up): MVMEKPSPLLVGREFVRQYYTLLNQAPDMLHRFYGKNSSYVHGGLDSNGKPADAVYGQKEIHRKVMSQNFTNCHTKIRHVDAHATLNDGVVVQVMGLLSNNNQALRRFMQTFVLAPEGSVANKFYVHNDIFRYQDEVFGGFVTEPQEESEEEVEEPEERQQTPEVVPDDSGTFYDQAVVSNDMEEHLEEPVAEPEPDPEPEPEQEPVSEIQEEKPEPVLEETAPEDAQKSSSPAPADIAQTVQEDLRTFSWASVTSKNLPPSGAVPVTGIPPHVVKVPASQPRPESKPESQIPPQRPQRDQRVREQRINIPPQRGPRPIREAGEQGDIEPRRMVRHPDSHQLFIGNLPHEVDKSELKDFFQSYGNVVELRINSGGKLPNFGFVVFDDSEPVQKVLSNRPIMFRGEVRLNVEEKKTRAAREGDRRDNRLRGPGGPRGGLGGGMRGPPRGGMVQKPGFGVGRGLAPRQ
# Shared flanks, not repeated: GGGAGUUCUACAGUCCGACGAUC … UGGAAUUCUCGGGUGUCAAGG
Strand,log2 enrichment
UGCAUGUGCACUGAUAGGCCAAGGCCAGCUGAACCAGGCCAUGAAAAUCCUACAAAAAGCUGAAGGUUGGAAGUUUGUUAAACUUAUCUG,-0.248
CCUGUGCUACACAUCGUAUGUACCGAAUCGGUUUUUUUGGUUUUUUUGGGGUUUUUUUGGAAAGUAUUAUGUUACGCCGUUCGGAUCUGC,-0.344
ACCAUGCAGGUGGGCAUCUUUGGGAAGUGGGGCAAGGGGGGGAUAGGGAGGGGGAUAACACUUUGGGAACAGGUGGUCCCAGGUCGUUUC,0.385
CUCAAGUCCUGUGCUACACAUCGUAUGUACCGAAUCGGGGUUGGGGUUGGUUGGAAAGUAUUAUGUUACGCCGUUCGGAUCUGCACUUCC,-0.247
ACCAUGCAGGUGGGCAUCUUUGGGAAGUGGGGCAAGGGGGGGAUAGGGAGGGGGGUAACACUUUGGGAACAGGUGCUCCCAGGUCGUUUC,0.657
CACAGACAACACGCACCCACACAGACACAGAGGGAAGGGGUUGGGAUGGGGACAGGGUGCACAGCAGGGCGGGGUAAGACCCCAGCCCCU,-0.271
CACAGACAACACGCACCCACACAGACACAGAGGGAAGGGGUUGGGAUGGGGACAGGGUGCACAGCAGGGCGAGGUAGGACCCCAGCCCCU,-0.269
UGGCCCUGGUGGCAUGCGGGGACGAAGAGGUGGCCUCAUGGAUCGUGGUGGUCCCGGUGGAAUGUUCAGAGGUGGCCGUGGUGGAGACAG,1.07
AAGUCCUGUGCUACACAUCGUAUGUACCGAAUCGGGGUGGGGAAAGGGGUUUGGGGAAAGUAUUAUGUUACGCCGUUCGGAUCUGCACUU,1.28
UCCUGUGCUACACAUCGUAUGUACCGAAUCGGGGAAAGGGGUUUUUUUGGGGAAAGGGGAAAGUAUUAUGUUACGCCGUUCGGAUCUGCA,1.01
UGGGCGGCUGCGAGAUGAGAACGGACGACCCUACUCGCCCAGUCAGUAUGCGCUCCAGUACGCCGGGGACGGCAGUGUCCUCCUCAUCCC,-0.324
CCUGUGCUACACAUCGUAUGUACCGAAUCGGGGAAAGGGGAAAAAGGGGAAAAAAAGGGGAAAGUAUUAUGUUACGCCGUUCGGAUCUGC,0.422
UCCUGUGCUACACAUCGUAUGUACCGAAUCGGGAAAGGGUUUUUUUGGGUUUUUUUGGGAAAGUAUUAUGUUACGCCGUUCGGAUCUGCA,-0.0611
UCCUGUGCUACACAUCGUAUGUACCGAAUCGGGAAAAAGGGAAAAAGGGAAAAAAAGGGAAAGUAUUAUGUUACGCCGUUCGGAUCUGCA,0.177

# Block 3 — method: protein-binding microarray; form: double-stranded DNA, one strand shown; sample: in vitro; concentration: 250 nM; setting: 60-bp whole probe; together with: salmon DNA 0.4 mg/ml; relative to: random background probes; direction: higher = stronger binding; shared flanks, not repeated: GCCTAGCAC … GTCTTGATTCGCTTGACGCTGCTG
# Target: Interferon regulatory factor 7, full length, phosphomimetic (IRF7, Homo sapiens, UniProt Q92985, residues 1-503, S101K/S471D/S472D/S475D/S476D/S477D/S483D/S484D/S487D)
# Construct (chain): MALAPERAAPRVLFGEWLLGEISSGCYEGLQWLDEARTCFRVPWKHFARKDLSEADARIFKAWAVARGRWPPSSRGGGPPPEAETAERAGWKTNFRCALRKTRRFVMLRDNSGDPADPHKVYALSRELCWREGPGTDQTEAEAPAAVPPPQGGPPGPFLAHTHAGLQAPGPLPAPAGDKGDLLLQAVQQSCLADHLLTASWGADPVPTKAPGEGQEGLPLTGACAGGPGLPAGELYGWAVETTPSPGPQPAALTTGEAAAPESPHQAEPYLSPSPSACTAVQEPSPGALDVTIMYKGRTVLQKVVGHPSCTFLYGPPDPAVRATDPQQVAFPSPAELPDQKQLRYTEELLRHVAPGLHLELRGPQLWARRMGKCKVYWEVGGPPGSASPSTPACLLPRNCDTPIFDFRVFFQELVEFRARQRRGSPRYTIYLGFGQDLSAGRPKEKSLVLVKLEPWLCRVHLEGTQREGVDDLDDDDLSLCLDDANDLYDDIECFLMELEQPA
Strand,log fluorescence
TCATTTTACTTTCTGAAACTGTGCTAG,2.1 z-score
GACGGTATCCTAGTGCTGACGTGCTAG,-0.373 z-score
TCATTTCTCAGTTTATTACTGTGCTAG,2.49 z-score
TTAGGGCTCGGTCTCGGTTAGTGCTAG,2.18 z-score
TTAGGACTCGACACTGGGTTAGTGCTA,0.092 z-score
TTAGGTATCGGGATTCGGTTAGTGCTA,2.31 z-score
GAAGGACTGCTACTGCTGACGTGCTAG,-0.577 z-score
GACGGTTCCGGTTTCGGGATGTGCTAG,8.31 z-score
TTAGGTATCGACTATCTGTTAGTGCTA,0.19 z-score
TTTATTTTTACATTATTACCGTGCTAG,1.07 z-score
GGTTTTTTTTTAATTGAAATGTGCTAG,1.95 z-score
TTCGATTTCGGGTTTCGATTAGTGCTA,8.21 z-score
TCAGTTTTCTTTTCCATACTGTGCTAG,4.07 z-score
TCACTCTTCTTTTTTTTACTGTGCTAG,0.877 z-score
GACGGCATCGGACTGGGGACGTGCTAG,-0.733 z-score
GACGGTTTCGGATTGGGGACGTGCTAG,11.7 z-score
TTAGGTTCCCTTTTCATTTAGTGCTAG,4.23 z-score
TCAAATTTTTTTCTAAGACTGTGCTAG,0.113 z-score
GAGGAACTGAGTATCGAGACGTGCTAG,0.0481 z-score
TTAGATCTCAGTCGCGATTAGTGCTAG,0.322 z-score
ACAGCAAGCAGGGCCAGCCCGTGCTAG,-1.2 z-score
TCATTTCTCTGGTTCTTACTGTGCTAG,2.57 z-score
GACGATTCCAGTTTCGAGACGTGCTAG,4.87 z-score
TTAGGACTGGGGACTGGGTTTGTGCTA,-0.422 z-score
TTGAGGTTTTCTCTGGTTCTGTGCTAG,-0.0895 z-score

# Block 4 — method: DHFR PCA, deep sequencing; sample: yeast; together with: (+)-ABA 0.39 µM; relative to: wild-type fitted maximum; direction: higher = stronger binding
# Target: ABI1, truncated, D143A, DHFR fusion (Arabidopsis thaliana)
# Setting: methotrexate growth selection, single substitutions
# Parent: PYL1, truncated, DHFR fusion (Arabidopsis thaliana); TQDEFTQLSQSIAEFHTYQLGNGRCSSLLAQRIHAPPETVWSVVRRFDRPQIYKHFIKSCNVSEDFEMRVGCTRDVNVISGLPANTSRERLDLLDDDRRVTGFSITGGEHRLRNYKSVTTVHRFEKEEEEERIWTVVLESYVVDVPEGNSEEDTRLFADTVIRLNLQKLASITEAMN
Variant,relative binding score [%]
N77S,63.7
E151P,49.9
T101V,45.3
M68W,0.41
F5A,19.8
R132I,27.1
Q10K,54.5
D92E,10.9
M68P,3.6
D97L,11.2
S117R,4.45
N165D,18.4
R99P,-8.11
R163V,5.77
R90M,5.74
D75I,60.5
V145K,-36.2
R24E,22.6
H16A,-8.89
N22G,39.5
F157K,-3.36
N77P,-16.2
R88T,56
S59M,3.92
E125H,54.7

# Repeated from above (block 4):
Variant,relative binding score [%]
N77S,63.7
R99P,-8.11
N22G,39.5
R132I,27.1
R163V,5.77
F5A,19.8
M68P,3.6
H16A,-8.89
R90M,5.74
